Experimental data pooled from the literature.
Numbered parts are unrelated; each lists some results of a single study.

Set 1 — technique: protein binding microarray; form: double-stranded DNA, one strand shown; sample: in vitro; tested at: not given; baseline: not given; reading: higher = stronger binding; endpoint: E-score
Target: Histone acetyltransferase KAT6A, winged helix 1, GST fusion (KAT6A, Homo sapiens, UniProt Q92794, residues 1-85)
Notes: 8-mer, flanks averaged, mean of 2 arrays, mostly near background
Target sequence (chain): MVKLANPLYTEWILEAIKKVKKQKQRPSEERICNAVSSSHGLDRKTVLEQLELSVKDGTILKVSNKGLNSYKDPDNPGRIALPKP
GAATCATC: -0.14
CCGCGCAC: 0.398
GTCCTAGA: -0.0169
CCATACAG: -0.15
GACGAGAC: -0.103
CTCATGGA: -0.23
AAGTCTTG: -0.00475
CGTATCCA: -0.178
ATAACAAA: -0.196
CGAAGATA: -0.191
AAATCTGA: -0.11
TGTAGCAA: -0.0865
ATTCAAGG: -0.226
CTGCCTCA: -0.113
GATTCATA: -0.0331
CAGTCTCG: -0.177
CTACGGAG: 0.167
TCTCCAGA: -0.179
ACACTGTA: -0.157
CAGTAAAG: -0.0491
GACACTTA: 0.0262
ACATATGC: -0.074
GATGCGAA: -0.00095
AGATTGTA: -0.211
AGTTATAA: -0.158

Set 2 — technique: RNA Bind-n-Seq; form: RNA; sample: in vitro; tested at: 1 µM; notes: whole 134-nt RNA, ends assumed; with: 150 mM KCl; baseline: input library; reading: higher = stronger binding; endpoint: log2 enrichment
Target: Ras GTPase-activating protein-binding protein 1, RRM domain (G3BP1, Homo sapiens, UniProt Q13283)
Sequence of UniProt Q13283 (whole entry, looked up): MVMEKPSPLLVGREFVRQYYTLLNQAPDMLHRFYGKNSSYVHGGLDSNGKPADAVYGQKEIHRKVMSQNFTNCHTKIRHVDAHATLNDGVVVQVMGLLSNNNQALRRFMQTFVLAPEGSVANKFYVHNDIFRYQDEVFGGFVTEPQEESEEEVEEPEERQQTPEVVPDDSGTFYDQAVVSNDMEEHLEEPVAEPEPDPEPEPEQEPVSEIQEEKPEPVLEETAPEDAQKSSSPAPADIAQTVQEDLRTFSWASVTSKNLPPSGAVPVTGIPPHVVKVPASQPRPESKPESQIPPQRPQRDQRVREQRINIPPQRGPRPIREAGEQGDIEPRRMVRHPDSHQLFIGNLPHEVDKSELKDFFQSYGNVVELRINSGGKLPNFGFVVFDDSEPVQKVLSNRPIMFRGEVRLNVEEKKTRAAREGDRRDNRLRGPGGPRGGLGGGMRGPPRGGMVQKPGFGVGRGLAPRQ
All sequences stand within: GGGAGUUCUACAGUCCGACGAUC … UGGAAUUCUCGGGUGUCAAGG
UGUGUCUUGCUGAAUCAGGGCUCUCUUAUCCCUGCCAUCGACUUACAGUGGGAAGAAGAUCUUCACCUGCACAGACCCGGGAACAGUCGG: -0.0655
GCAGGAAGUAAAAACAAAUGGAAAUGCUUCGGAUAGUGGCAGGGGUGGGGGUUGCUAAGGAAAGGGUGGGAAGGGAGUGGGUAAAGAGUU: 1.26
UGGGAGGUGUAUUUUGUUUAUUUUUUUAGCUCAUUUCCAGGGGUGGGAAUUUUUUUUUAAUAUGUGUCAUGAAUAAAGUUGUUUUUGAAA: 1.52
UUCUCUCUCUCCCUUUGCAGCCGCUGUACAACCAGCCCUCCGACACCCGGCAGUAUCAUGAGAACAUCAAAAUGUGAGUGCUCGCGGGCA: 0.169
CAAGUCCUGUGCUACACAUCGUAUGUACCGAAUCGGGUUUUUGGGUUUGGGAGGGAAAGUAUUAUGUUACGCCGUUCGGAUCUGCACUUC: 0.423
AAGUCCUGUGCUACACAUCGUAUGUACCGAAUCGGGGUUUUGGGUUUUGGGUUUUGGAAAGUAUUAUGUUACGCCGUUCGGAUCUGCACU: -0.22
ACCAUGCAGGUGGGCAUCUUUGGGAAGUGGGGCAAGGGGGGGAUAGGGAGGGGGGUACCACUUUGGGAACAGGUGGUCCCAGGUCGUUUC: 1.05
UUUGAAAAAGAAGAAAAAGAAAAAGAAGGGUAAGGCAUUAAAAAAGUCUUUAUAAAUUUUCUCCAAAAUAAAUGUUUGAUUUUAGCCCUA: -0.18
GUCCUGUGCUACACAUCGUAUGUACCGAAUCGGGAAAAAGGGGAAAAAGGGAAAAAGGAAAGUAUUAUGUUACGCCGUUCGGAUCUGCAC: 0.00124
UCAAGUCCUGUGCUACACAUCGUAUGUACCGAAUCGGAGGAAAAAAAGGUUUGGAAAGUAUUAUGUUACGCCGUUCGGAUCUGCACUUCC: -0.223
CCUGUGCUACACAUCGUAUGUACCGAAUCGGGCCCCCCCGGCCCCCCCGGGGCCCCCCCGGAAAGUAUUAUGUUACGCCGUUCGGAUCUG: -0.497
UAACUUUAGAGGAGGAUCUGAUGGAUAUGGCAGUGGACGUGGAUUUGGGGAUGGCUAUAAUGGGUAUGGAGGAGGCCCUGGAGGUGGCAA: -0.332
UCAAGUCCUGUGCUACACAUCGUAUGUACCGAAUCGGUGGUUUUUGGUUUUUGGAAAGUAUUAUGUUACGCCGUUCGGAUCUGCACUUCC: -0.158
CCUCAAGUCCUGUGCUACACAUCGUAUGUACCGAAUCGGUUUGGUGGAAAGGAAAGUAUUAUGUUACGCCGUUCGGAUCUGCACUUCCAG: -0.217

Set 3 — technique: universal PBM; form: double-stranded DNA, one strand shown; sample: in vitro; tested at: not given; reading: higher = stronger binding; endpoint: E-score
Target: Sal-like protein 4, full length isoform B (SALL4, Homo sapiens, UniProt Q9UJQ4-2, residues 1-616)
Notes: 8-mer, flanks averaged, mean of replicates
Target sequence (chain): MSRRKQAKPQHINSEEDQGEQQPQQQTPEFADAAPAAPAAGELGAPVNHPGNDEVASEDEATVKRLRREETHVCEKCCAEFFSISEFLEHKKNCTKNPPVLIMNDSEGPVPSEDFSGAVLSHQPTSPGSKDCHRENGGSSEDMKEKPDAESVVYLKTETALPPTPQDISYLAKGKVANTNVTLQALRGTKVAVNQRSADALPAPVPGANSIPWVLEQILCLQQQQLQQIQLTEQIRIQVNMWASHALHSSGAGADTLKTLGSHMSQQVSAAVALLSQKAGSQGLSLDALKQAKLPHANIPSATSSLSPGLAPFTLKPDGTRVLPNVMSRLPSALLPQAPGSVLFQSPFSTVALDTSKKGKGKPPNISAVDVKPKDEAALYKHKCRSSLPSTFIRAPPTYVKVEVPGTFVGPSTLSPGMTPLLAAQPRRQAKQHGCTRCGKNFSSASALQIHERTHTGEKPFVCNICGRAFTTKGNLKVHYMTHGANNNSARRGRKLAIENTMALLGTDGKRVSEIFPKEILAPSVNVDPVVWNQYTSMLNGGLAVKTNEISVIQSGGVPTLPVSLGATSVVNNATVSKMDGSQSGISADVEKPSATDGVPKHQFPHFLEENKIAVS
CTACACAC: 0.129
GTTTTCGA: -0.00638
AGACAGAA: 0.0328
CTCCGTCA: -0.0356
CGGGTAAA: 0.0215
AAAGTCTA: 0.0604
CAGCGCGG: -0.366
AATAGTTA: 0.259
CGCTTTGA: -0.045
ACGGAACT: 0.0301
CACTTTGC: -0.00479
GTTGGAGA: -0.00557
GGTATACA: 0.108
GCCCGCAC: -0.265
CTAGGAAA: 0.118
CCCCCGTA: -0.189
GCTGTCAC: -0.0268
GCCAAAAA: 0.186
GCGGCCAC: -0.411
GCGAAAGC: -0.189
ACACGTAC: 0.0789
AAACGCGC: -0.239
ATAAACCA: 0.222

Set 4 — technique: RNA Bind-n-Seq; form: RNA; sample: in vitro; tested at: not given; notes: RNA with constant flanks, ends assumed; baseline: input RNA pool; reading: higher = stronger binding; endpoint: bound/input enrichment
Target: RING finger protein unkempt homolog, zinc fingers 1-6, GST-SBP tag (UNK, Homo sapiens, UniProt Q9C0B0, residues 30-357)
Sequence of UniProt Q9C0B0 (30-357, looked up): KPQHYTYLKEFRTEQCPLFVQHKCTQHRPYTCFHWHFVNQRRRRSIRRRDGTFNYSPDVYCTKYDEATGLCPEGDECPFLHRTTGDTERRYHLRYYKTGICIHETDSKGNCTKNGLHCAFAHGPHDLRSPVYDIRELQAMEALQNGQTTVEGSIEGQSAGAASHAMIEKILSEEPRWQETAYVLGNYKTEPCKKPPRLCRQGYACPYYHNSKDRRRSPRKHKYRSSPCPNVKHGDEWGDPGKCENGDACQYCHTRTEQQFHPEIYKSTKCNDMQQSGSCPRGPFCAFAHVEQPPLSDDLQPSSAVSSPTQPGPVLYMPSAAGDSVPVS
All sequences stand within: GGGAGUUCUACAGUCCGACGAUC … CAACAGAGGAUUGAGCAUCA
GAACCGAAAGGCCAAAUCCCCUCCUCCCUUCUCCUGCUUCUGCCAACCGGAAGCACAGAAAACCCGAACUUCAUUGAUUUUGUUUUUUAAAAGAUACACUGAUUUAACAUCUGAUAGGAA: 0.405 ratio
CUGGUUUCCUGGAUUGGAUUGAUCAGUUUGAUUUGUUCUGUAUUUGGCCAAACAGAUAAAAACCGAUGUUUAAAAGCAAAUGCCAAAUCUUGCGGAGAAUGUAUACAAGCAGGGCCAAAU: 0.204 ratio
GGGCAUAUACAGCUUAUAAUUCCUGGAGAAUCUGCUUGUUUUGCGUGUGCUCCACCACUUGCCGUUGCUGCAAAUAUUGAUGAAAAGACUCUGAAACGAGAAGGUGUUUGUGCAGCCAGU: 0.286 ratio
CAUAAUUAUGGUGCUCGUCCUCCUCCGACACCUCCGGCUUCCCCUCCUCCAUCAGUCCUUAUCCGCAAAAAUGAAGUAGGCAUAUUUACCACUCCUAAUUUUGAUGAAACUUCCAGUGCU: 1.1 ratio
ACACCCAGUCGCCGAGUCCUGCCCUGUUCUGGCCGCCGGCCCCAACUGGACCUCGACAUCCUCCGCAGCCUCAUCAACUUGUGUGAUAGUCCUGUGUCCCCAUCUGAGGCCAGCCGAACA: 0.0992 ratio
UUUUAGAGUGUGGAAAAACCAAUCUGAGAAGAACAACCUACCUUGUCCUUGAUGAAGCAGACCGAAUGCUUGAUAUGGGCUUUGAACCCCAAAUAAGGAAGAUUGUGGAUCAAAUAAGAC: 0.181 ratio
CGCAUUUUGAUGGUUGGAUUGGAUGCUGCUGGCAAGACAACCAUUCUGUAUAAACUGAAGUCCGGGGAGAUAGUCACCACCAUUCCUACCAUUGGUUUUAAUGUGGAAACAGUAGAAUAU: 0.402 ratio
UUGCUAUUGUGAGAUGGAUUUUAACUGACCUAUUAAGGGUUUCUUUCGAAUGGCACUACUUCCGGGACAUUCUAGUAUUUGCUUCUAUUGUUUGGGCCUUGUGGAUAAUGUACAGAUUUA: 0.743 ratio
AAAACUGAUUUAGAUAAUUCUAUAGGAAUUAAAAAAAUGAAAACCUCAUGUAAAUUUAAGACCGAUUCAAACAUAAGUCCGAAGAAGGAUAGCAAAGAAUUUACACAAAAAAAUAAGAAA: 1.78 ratio
CUCAUGUAUCUACUAGCAUAUCCACAAAAACCCAUGGUUAAGACAAAAACCAUUGAAUUGACCGAAUUUGAGAAACUGCCAGCUGGACAGAAUGCAACAGUUGCUGUGAUGAGCUAUAGU: 0.196 ratio
AUCCCAAUUAUGGACACCGGUGAAAACCCAGAGGUGCCCUUCCCUCGGGACAUGAUCGACUCCGAGGCCAAUUUCGAGAAGAUUGAAAAUGAACUGAAGGAAAUCAACACUAACCAGGAA: 0.129 ratio

Set 5 — technique: protein-binding microarray; form: double-stranded DNA, one strand shown; sample: in vitro; tested at: 2200 nM top; notes: 60-bp whole probe; with: salmon DNA 0.4 mg/ml; baseline: random background probes; reading: higher = stronger binding; endpoint: fitted relative affinity; all sequences stand within: GCCTAGCAC … GTCTTGATTCGCTTGACGCTGCTG
Target: Interferon regulatory factor 7, full length, phosphomimetic (IRF7, Homo sapiens, UniProt Q92985, residues 1-503, S471D/S472D/S475D/S476D/S477D/S483D/S484D/S487D)
Target sequence (chain): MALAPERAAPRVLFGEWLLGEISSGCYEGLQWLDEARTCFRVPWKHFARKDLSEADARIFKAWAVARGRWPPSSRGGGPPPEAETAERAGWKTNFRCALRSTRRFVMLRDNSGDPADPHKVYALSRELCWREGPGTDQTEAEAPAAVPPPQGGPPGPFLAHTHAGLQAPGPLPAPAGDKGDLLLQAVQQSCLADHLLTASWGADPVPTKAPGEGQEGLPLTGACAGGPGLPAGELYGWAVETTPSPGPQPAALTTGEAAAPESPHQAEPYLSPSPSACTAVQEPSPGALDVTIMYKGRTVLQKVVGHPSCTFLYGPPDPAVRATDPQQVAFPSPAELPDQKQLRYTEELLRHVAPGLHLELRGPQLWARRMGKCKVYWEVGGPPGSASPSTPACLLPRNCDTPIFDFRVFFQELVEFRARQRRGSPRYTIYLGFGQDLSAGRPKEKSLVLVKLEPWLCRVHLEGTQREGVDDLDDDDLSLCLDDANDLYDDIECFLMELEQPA
TTAGATTTCAGTATCGATCAGTGCTAG: 0.66 z-score
GACGGCTTCGGGACTGGGGACGTGCTA: -0.797 z-score
TTAGATTTCGGGTGTCGATTAGTGCTA: 2.02 z-score
GACGAGCTGGGGTATCGAGACGTGCTA: -0.256 z-score
GACGATTTTAGTCTCGAGACGTGCTAG: 0.496 z-score
GACGGTTTCCTTTCACTGACGTGCTAG: 5.55 z-score
TCACCTCTCTGTCCCCCACTGTGCTAG: 1.43 z-score
GGCTTTGACTCTTTCTGTCAGTGCTAG: 0.61 z-score
GACGACTTCAGACTGGAGACGTGCTAG: -0.21 z-score
TTTTTTTTGCAAGCTAAAAAAGTGCTA: -0.231 z-score
GACAGTCTCGGTTTCGGGACGTGCTAG: 4.67 z-score
GACGGTTTTGGTTCCGGGACGTGCTAG: 2.38 z-score
GACGGACTGTACTATCGGGACGTGCTA: -0.343 z-score
TCAGTCACCCATCTCAGACTGTGCTAG: 0.901 z-score
GGAGTTTTCAGTCCTGGGATGTGCTAG: 1.05 z-score
TTAGATCTCAGTTTCGATTTGTGCTAG: 11.5 z-score
GAAGAACTGGGGTATCGAGACGTGCTA: -0.33 z-score
GACGGACTGGGATTTCGGGACGTGCTA: -0.0103 z-score
TTAGGCCTGGGGTTTCGGTTAGTGCTA: 2.19 z-score
TAGATATTATATCTGTGTTAGTGCTAG: 0.177 z-score
TTTGATTTCAGTTTCGATTAGTGCTAG: 8.64 z-score
TTAGAACTGGGGACTAGATTAGTGCTA: -0.389 z-score
GACGGTATCGGTCTCCGGACGTGCTAG: 0.385 z-score
GACGGTCTCCTTATCCTGTCGTGCTAG: 1.71 z-score
GAGGGACTGGGACTGGGGACGTGCTAG: -0.941 z-score
